Measured values of several laboratories.
Each line is one published result; not all experiments were run side by side. ± gives the spread as reported.

SMILES	test	test system	setting	scale	endpoint	result
NC(=O)c1[nH]cnc1N	–	leiomyosarcoma patients, plasma	intravenous, dose not given, cycle 2 day 1, with: dacarbazine staggered	reference: cycle 1 day 1	AUC(0-24h) increase	58.6%
CC(C)(C(=O)N1CCOc2c(C#N)cncc2C1)C(F)F	item: medical device site dermatitis	healthy humans, both sexes	oral, 20 mg single dose	–	subjects with TEAE	0%
OCc1nc2ccc(NCc3ccc(C(F)(F)F)cc3)cc2[nH]1	–	Balb/c mice male, plasma	intravenous, 1 mg/kg	–	clearance	61 ± 6.67 mL/min/kg
Nc1ncn([C@H]2C[C@H](O)[C@@H](CO)O2)c(=O)n1	–	mouse plasma	80 ng/mL, -80 °C, three freeze-thaw cycles, with THU	–	mean deviation from nominal	12.4%
CSc1cc(C)nc(SC)c1NC(=O)CN1CCN(CCSc2nc3ccccc3[nH]2)CC1	–	mouse Crl:CD1 (ICR), female, olfactory bulb	intranasal, 50 µL of 3.24 mg/mL solution, daily for 7 days, 120 min, 0.01 N HCl solution vehicle	–	concentration	2.6 ng/g
O=C(O)CCC(=O)O.[2H]C([2H])([2H])Oc1cc(C)c2[nH]ccc2c1CN1CC[C@@H](C2CC2)C[C@H]1c1ccc(C(=O)O)cc1	multiple ascending dose	healthy Chinese subjects	50 mg twice daily	–	subjects with elevated triglycerides TEAE	12.5%
CC[C@H](C)[C@H](NC(C)=O)C(=O)N[C@H]1CSSC[C@@H](C(=O)N[C@H](C(N)=O)[C@@H](C)O)NC(=O)[C@H](CCCNC(=N)N)NC(=O)[C@H](Cc2c[nH]cn2)NC(=O)[C@](C)(CC)NC(=O)CNC(=O)[C@H](Cc2c[nH]c3ccccc23)NC(=O)[C@H](CC(=O)O)NC(=O)[C@H](CCC(N)=O)NC(=O)[C@H](Cc2c[nH]c3ccccc23)NC(=O)[C@H](C(C)C)NC1=O	isocratic RP-HPLC, C18	32% acetonitrile, phosphate pH 7.4, 1% TFA	25 °C	–	retention factor	1.208 ± 0.01
C=CCn1c(=O)c2cnc(Nc3ccc(N4CCN(C)CC4)cc3)nc2n1-c1cccc(C(C)(C)O)n1	–	human	oral, 175 mg twice daily, monotherapy lead-in, -5 days	median	Tmax	2 h
Cc1ccc([C@@H]2O[C@H](CO)[C@@H](O)[C@H](O)[C@H]2O)cc1Cc1ccc(-c2ccc(F)cc2)s1	–	Japanese type 2 diabetes patients	25 mg, day 16, 24 h urine collection	reference: baseline	urinary calcium excretion change	20.7 mg
C[C@]12C[C@@]34C=CC(=O)[C@@](C)(CCC(=O)Nc5c(O)ccc(C(=O)S[C@H]6CC(=O)[C@@](C)(CCC(=O)Nc7c(O)ccc(C(=O)O)c7O)[C@@H]7[C@@H]8C[C@@H]9C[C@]67C[C@]9(C)O8)c5O)[C@@H]3[C@H](C[C@@H]1C4)O2	–	C57BL/6 mice, plasma	intravenous, 10 mg/kg	–	clearance	11 mL/min/kg
C=CCN1CC(=O)N2[C@@H](Cc3ccc(O)cc3F)C(=O)N(Cc3cccc(N4CC(N5CCN(CC)CC5)C4)n3)C[C@@H]2N1C(=O)NCc1ccccc1	item: ALT increased	human advanced solid tumours	concentration not given, dose escalation grade ≥3	–	treatment-related adverse events	0%
CNC(=O)c1ccc(-c2cnc3ncc(Cc4ccc5ncccc5c4)n3n2)cc1F	–	healthy human subjects	oral, dose not given, all grades, with: rifampicin	reference: subjects	treatment-related diarrhoea incidence	11.5%
O=C(NCCCNc1ccnc(Nc2cccc(NC(=O)N3CCCC3)c2)n1)C1CCC1	PAMPA	PBS	5 h, pH 7.4	–	effective permeability	0.0824 ×10⁻⁶ cm/s
COc1cc2c3cc1Oc1c(OC)c(OC)cc4c1[C@@H](Cc1ccc(O)c(c1)Oc1ccc(cc1)C[C@@H]3N(C)CC2)N(C)CC4	–	mouse plasma, K3EDTA	4 h, on ice	–	remaining compound	119%
Cn1cc([C@H]2C[C@H]3CSC(N)=N[C@@]3(c3ccc(F)cc3F)CO2)cn1	–	mouse	subcutaneous, 10 mg/kg, 13 h	–	CSF concentration	not detected
CCc1cc(C(=O)NC)c2nccc(N3CCc4c(cc(Cn5ccnc5)cc4-c4cn(C)nc4C(F)(F)F)C3=O)c2c1	–	Sprague Dawley rats	oral, 100 mg/kg once daily, 7 days	reference: vehicle	serum MCH change	2.03%
COc1ccc2c(=O)n(C)c(-c3ccccc3)nc2c1	–	Sprague-Dawley rat, male, small intestine	oral, 30 mg/kg, 4 h	reference: small intestine over plasma	tissue/plasma ratio	1830
CCCC[C@H]1CC[C@H](c2ccc(C#N)cc2)CC1	–	Sprague-Dawley rat, female, fetus	5000 ng/mL in perfusate, 50 (unit not given), high dose, mixture of 21 LCMs	–	fetal accumulation	1.53 ± 1.35 ng/g
NC1(C(=O)N[C@@H](CCO)c2ccc(Cl)cc2)CCN(c2nc[nH]c3nccc2-3)CC1	–	metastatic CRPC patients	320 mg b.i.d., grade 3 to 4, treatment-related, with: enzalutamide 160 mg daily	–	incidence of Dysuria	0%
O=C(c1cccnc1-c1ccncc1)N1CCC(O)(Cc2ccccc2)CC1	–	healthy Japanese adults, plasma	oral, 300 mg twice daily, day 21	–	Vz/F	641 L
CC1(C)CC[C@]2(NC(=O)C(C)(F)F)CC[C@]3(C)[C@H](C(=O)C=C4[C@@]5(C)C=C(C#N)C(=O)C(C)(C)[C@@H]5CC[C@]43C)[C@@H]2C1	–	human, plasma	oral, 150 mg, day 21 predose, mean	–	trough plasma concentration	33.5 ng/mL
CCCCCCCCCCCCCCCC(=O)N[C@@H](CCC(=O)NCCCC[C@@H]1NC(=O)[C@H]([C@@H](C)CC)NC(=O)[C@@H](NC(=O)[C@@H]2CCCN2C(=O)[C@H](Cc2ccccc2)NC(=O)[C@H](Cc2c[nH]cn2)NC(=O)[C@@H](NC(=O)[C@H](CC(=O)O)NC(=O)CC(C)C)[C@@H](C)O)CSSC[C@@H](C(=O)N[C@@H](CCCCN)C(N)=O)NC(=O)CNC(=O)[C@H](CCCCN)NC(=O)[C@H](CO)NC(=O)[C@H](CCCNC(=N)N)NC(=O)[C@@H]2CCCN2C(=O)[C@H](CCC(=O)O)NC(=O)[C@H](Cc2ccccc2)NC1=O)C(=O)O	–	healthy volunteers, plasma	subcutaneous, 20 mg single, lyophilised formulation	–	Vz/F	40.5 ± 20.1 L
Cl.[2H]C([2H])([2H])CC(=O)c1cnc(NC(=O)C2CC2)cc1Nc1cccc(-c2ncn(C([2H])([2H])[2H])n2)c1OC	–	human, fasted, multiple dose	oral, 20 mg twice daily, tablet, day 14, geometric mean	–	terminal elimination rate constant	2e-05 s⁻¹
NC(=O)N1c2ccccc2C=Cc2ccccc21	–	healthy human subjects, plasma	oral, dose not given, 12 h, twice daily, with glecaprevir and pibrentasvir	–	trough concentration	6070 ng/mL
N#CCc1ccccc1C#Cc1ccc(CCC(=O)O)cc1	–	–	1 µM, Cerep high-content toxicity	–	change in mitochondrial membrane potential	-5%

SMILES	test	test system	setting	scale	endpoint	result
COc1c(N2C[C@@H]3CCCN[C@@H]3C2)c(F)cc2c(=O)c(C(=O)O)cn(C3CC3)c12	–	healthy volunteers	oral, 400 mg single dose, day 5, 8.00 h	–	QTcI change from baseline	2.3 ms
C=CC(=O)N1CCC([C@@H]2CCNc3c(C(N)=O)c(-c4ccc(Oc5ccccc5)cc4)nn32)CC1	–	Sprague-Dawley rats, plasma	oral, 16 mg/kg, with: posaconazole 40 mg/kg	–	t1/2	2.77 ± 0.34 h
CCCCCN1C[C@H](O)[C@@H](O)[C@H](O)[C@@H]1CO	LC-MS/MS	Hexb-/- mice, total, brain	30 mg/kg/day	–	mean brain concentration	40 ng/g
CNCc1ccc(-c2[nH]c3cc(F)cc4c3c2CCNC4=O)cc1	–	human patients	oral, 40 mg once daily, grade 500 or higher	–	incidence of pulmonary embolism	0%
O=C(COc1ccc(Cl)cc1)NC12CC(c3nnc([C@H]4C[C@@H](OC(F)(F)F)C4)o3)(C1)C2	–	human both sexes	oral, 145 mg once daily, 14 days	–	participants maximum mild TEAE	85.7%
CC(=O)N[C@@H](CC(N)=O)C(=O)N[C@@H](CCCNC(=N)N)C(=O)N[C@@H](CC(C)C)C(=O)N[C@H]1CSSC[C@@H](C(=O)N[C@H](C(N)=O)[C@@H](C)O)NC(=O)[C@H](CCCNC(=N)N)NC(=O)[C@H](Cc2c[nH]cn2)NC(=O)[C@H](C)NC(=O)CNC(=O)[C@H](Cc2c[nH]c3ccccc23)NC(=O)[C@H](CC(=O)O)NC(=O)[C@H](CCC(N)=O)NC(=O)[C@H](Cc2c[nH]c3ccccc23)NC(=O)[C@H](C(C)C)NC1=O	RP-HPLC, C18	28% acetonitrile isocratic	pH 7.4	–	retention factor	1.469 ± 0.009
Cn1cc(Nc2nccc(-c3ccc4c(c3)CN(C3COC3)CC[C@H]4NC(=O)c3cn(C(C)(C)C)nn3)n2)cn1	–	human, whole blood	50 mg twice daily, day 14	reference: pre-dose baseline	naive B cell count change	20.7%
COc1cc2c3c(n(CCCNC(C)C)c(=O)c2cc1OC)-c1nc2c(cc1C3=O)OCO2	–	male CD1 mouse, plasma	oral, 10 mg/kg	–	dose-normalized AUC(0-t)	64.3 ng·h/mL
CC(=O)N(C)[C@H]1CCN(C(=O)c2cnc3c(c2)C[C@](C)(c2ccc(F)cc2)N3)C1	item: eyelid inflammation	human	oral, 15 mg once daily	–	adverse event duration	6 days
C=CC(=O)NC1CCN(c2ncc3ncnc(Nc4ccc(Oc5ccc6c(c5)ncn6C)c(C)c4)c3n2)CC1	item: total radioactivity	healthy male volunteers, whole blood	oral solution, 60 mg, 14C-labelled, geometric mean	–	AUC(0-24)	11 µM·h
O=C(O)CCCOc1ccc([18F])cc1-c1cc(-c2ccccc2C(F)(F)F)n(-c2ccccc2)n1	gamma counting	male ddY mice, kidney	intravenous, 2.1 MBq, 30 min	–	radioactivity uptake	2.77 ± 0.05 SUV
CCn1cc(C(=O)N2CCOCC2)c(=O)c2cc(NC3Cc4ccccc4C3)cnc21	–	human overall, fed, plasma	oral, 900 mg twice daily, day 1, tablet, arithmetic mean	–	AUC(0-12h)	28100 ng·h/mL
C=C1C[C@@H]2[C@H](CC[C@]3(C)C(=O)CC[C@@H]23)[C@@]2(C)C=CC(=O)C=C12	–	postmenopausal women, serum	oral, 25 mg daily, 1 year, UGT2B17 and GSTA1 genotypes	–	share of modified total metabolites	25%
Cc1ccc(CCC(=O)Nc2nnc(S(N)(=O)=O)s2)cc1	–	BALB/c mice, male, plasma	oral, 20 mg/kg	–	clearance	77.6 mL/min/kg
CCO[C@H]1CCN(Cc2c(OC)cc(C)c3[nH]ccc23)[C@H](c2ccc(C(=O)O)cc2)C1	–	PNH patients, active haemolysis	oral, 200 mg, 8 weeks, treatment	–	incidence musculoskeletal chest pain	0%
CCCCCCCCCC(=O)[O-].C[N+](C)(C)CCO	fluorescence probe	water	37 °C	–	critical aggregation concentration	27.31 ± 0.13 mmol/L
O=C(N[C@H](Cc1c[nH]c2ccccc12)C(=O)Nc1ccncc1)c1ccc(N2CCN(c3ccc(F)c(F)c3)CC2)cc1F	–	Swiss Webster mouse, female, lung	oral, 50 mg/kg, 2 h, 20% HPβCD vehicle	–	concentration	1510 nM
O=C(Nc1nc2cccc(-c3ccc(CN4CCS(=O)(=O)CC4)cc3)n2n1)C1CC1	item: non-cardiac chest pain	human rheumatoid arthritis patients	oral, 30 mg once daily, 4 weeks, regardless of relatedness	–	treatment-emergent adverse events	0%
CN(CCCNC(=O)c1cccc(C(=O)O)c1)CCCNC(=O)c1cc(NC(=O)c2cc(NC(=O)c3cc(NC(=O)c4cc(NC(=O)[C@H](N)CCNC(=O)c5cc(NC(=O)c6cc(NC(=O)c7nc(NC(=O)c8nccn8C)cn7C)cn6C)cn5C)cn4C)cn3C)cn2C)cn1C	dynamic light scattering	0.1% DMSO in PBS	25 °C	–	critical aggregation concentration	0.004 mmol/L
COc1ncc(-c2nc3c(n2C(C)C)[C@H](c2ccc(Cl)cc2)N(c2cc(Cl)cn(C)c2=O)C3=O)c(OC)n1	–	human patients, plasma	oral, 15 mg, 0-24 h, low-dose arm, cycle 1 day 1	–	AUC(0-t) geometric mean	1550 ng·h/mL
CCn1c(=O)c(-c2cc(NC(=O)Nc3ccccc3)c(F)cc2Br)cc2cnc(NC)cc21	item: gastrointestinal disorders	healthy human, matched to mild hepatic impairment	oral, 50 mg single dose	–	participants with drug-related TEAE	12.5%
C[C@H]1CN(C(=O)CC#N)[C@]12CCN(c1ncnc3[nH]ccc13)C2	–	healthy Japanese men, urine	oral, 5 mg, single dose	reference: dose	fraction excreted unchanged	79.6%
CC[C@H](C)[C@H](NC(=O)[C@H](Cc1ccccc1)NC(=O)[C@H](CCC(=O)O)NC(=O)[C@H](CCCCNC(=O)COCCOCCNC(=O)COCCOCCNC(=O)CC[C@H](NC(=O)CCCCCCCCCCCCCCCCC(=O)O)C(=O)O)NC(=O)[C@H](C)NC(=O)[C@H](C)NC(=O)[C@H](CCC(N)=O)NC(=O)CNC(=O)[C@H](CCC(=O)O)NC(=O)[C@H](CC(C)C)NC(=O)[C@H](Cc1ccc(O)cc1)NC(=O)[C@H](CO)NC(=O)[C@H](CO)NC(=O)[C@@H](NC(=O)[C@H](CC(=O)O)NC(=O)[C@H](CO)NC(=O)[C@@H](NC(=O)[C@H](Cc1ccccc1)NC(=O)[C@@H](NC(=O)CNC(=O)[C@H](CCC(=O)O)NC(=O)C(C)(C)NC(=O)[C@@H](N)Cc1cnc[nH]1)[C@@H](C)O)[C@@H](C)O)C(C)C)C(=O)N[C@@H](C)C(=O)N[C@@H](Cc1c[nH]c2ccccc12)C(=O)N[C@@H](CC(C)C)C(=O)N[C@H](C(=O)N[C@@H](CCCNC(=N)N)C(=O)NCC(=O)N[C@@H](CCCNC(=N)N)C(=O)NCC(=O)O)C(C)C	ELISA	diabetic Sprague Dawley rats, male, serum	subcutaneous, 20 µg daily, comparison to single hydrogel injection	–	steady-state concentration	170 ± 60 ng/mL
C=CC(=O)NC1CCN(c2ncc3ncnc(Nc4ccc(Oc5ccc6c(c5)ncn6C)c(C)c4)c3n2)CC1	–	healthy male humans	oral, 240 mg	–	AE leading to discontinuation	0%

A few entries again:
SMILES	test	test system	setting	scale	endpoint	result
Cn1cc(Nc2nccc(-c3ccc4c(c3)CN(C3COC3)CC[C@H]4NC(=O)c3cn(C(C)(C)C)nn3)n2)cn1	–	human, whole blood	50 mg twice daily, day 14	reference: pre-dose baseline	naive B cell count change	20.7%
C[C@H]1CN(C(=O)CC#N)[C@]12CCN(c1ncnc3[nH]ccc13)C2	–	healthy Japanese men, urine	oral, 5 mg, single dose	reference: dose	fraction excreted unchanged	79.6%
COc1c(N2C[C@@H]3CCCN[C@@H]3C2)c(F)cc2c(=O)c(C(=O)O)cn(C3CC3)c12	–	healthy volunteers	oral, 400 mg single dose, day 5, 8.00 h	–	QTcI change from baseline	2.3 ms
COc1ncc(-c2nc3c(n2C(C)C)[C@H](c2ccc(Cl)cc2)N(c2cc(Cl)cn(C)c2=O)C3=O)c(OC)n1	–	human patients, plasma	oral, 15 mg, 0-24 h, low-dose arm, cycle 1 day 1	–	AUC(0-t) geometric mean	1550 ng·h/mL
C=CCn1c(=O)c2cnc(Nc3ccc(N4CCN(C)CC4)cc3)nc2n1-c1cccc(C(C)(C)O)n1	–	human	oral, 175 mg twice daily, monotherapy lead-in, -5 days	median	Tmax	2 h
